Published values from different studies.
A part holds a random share of what one study measured.

Block 1
Target: Prothrombin, mature alpha-thrombin (F2, Homo sapiens, UniProt P00734)
Method: aptamer microarray, sandwich
Form: DNA with 2'F-ANA
Matrix: in vitro
Concentration: 200 nM
Notes: whole 15-mer aptamer, many near background
With: Cy3 exosite-II aptamer, 400 nM
Reading: higher = stronger binding
Quantity: mean fluorescence intensity
Strand: GGTTGGTGTGGTTGG
Modification = 2'F-ANA at 1 2 4 5 6 8 10 13 15; value = 48 a.u.
Modification = 2'F-ANA at 1 3 4 10 11 12; value = 137 a.u.
Modification = 2'F-ANA at 2 3 5 6 7 11 13 14; value = 46.8 a.u.
Modification = 2'F-ANA at 2 7 8 12; value = 803 a.u.
Modification = 2'F-ANA at 1 4 5 6 10 12; value = 47.8 a.u.
Modification = 2'F-ANA at 3 5 6 9 10 12 13 14 15; value = 72.4 a.u.
Modification = 2'F-ANA at 4 5 6 8 9 10 11; value = 47.9 a.u.
Modification = 2'F-ANA at 1 3 5 6 7 8 9 11 12 14 15; value = 51.7 a.u.
Modification = 2'F-ANA at 1 4 5 7 8 9 11 12 13; value = 65.5 a.u.
Modification = 2'F-ANA at 3 4 5 10 11 12 15; value = 59.7 a.u.
Modification = 2'F-ANA at 1 3 5 8 10 12 13 15; value = 59.5 a.u.
Modification = 2'F-ANA at 3 4 5 7 11 12 13 14; value = 54.2 a.u.
Modification = 2'F-ANA at 3 4 10 14 15; value = 207 a.u.
Modification = 2'F-ANA at 1 2 6 7 8 11 12; value = 307 a.u.
Modification = 2'F-ANA at 1 2 4 5 6 7 10 12 13 14 15; value = 48.8 a.u.
Modification = 2'F-ANA at 1 2 3 4 7 13 15; value = 119 a.u.
Modification = 2'F-ANA at 1 4 7 9 13; value = 76.9 a.u.
Modification = 2'F-ANA at 1 2 4 5 8 9 10 13 15; value = 49.3 a.u.
Modification = 2'F-ANA at 2 4 5 6 7 8 11 13; value = 52 a.u.
Modification = 2'F-ANA at 2 6 10; value = 123 a.u.
Modification = 2'F-ANA at 2 4 6 8 10 14; value = 58.5 a.u.
Modification = 2'F-ANA at 1 3 5 6 9 13 14 15; value = 44.2 a.u.
Modification = 2'F-ANA at 1 4 6 7 8 9 12 13 14 15; value = 56 a.u.
Modification = 2'F-ANA at 4 7 8 9 10 14; value = 66.8 a.u.
Modification = 2'F-ANA at 2 3 5 7 8 13 14 15; value = 56.5 a.u.

Block 2
Target: Cyclic AMP-responsive element-binding protein 1 (CREB1, Homo sapiens, UniProt P16220, residues 1-327, full length assumed)
Sequence of UniProt P16220 (whole entry, looked up): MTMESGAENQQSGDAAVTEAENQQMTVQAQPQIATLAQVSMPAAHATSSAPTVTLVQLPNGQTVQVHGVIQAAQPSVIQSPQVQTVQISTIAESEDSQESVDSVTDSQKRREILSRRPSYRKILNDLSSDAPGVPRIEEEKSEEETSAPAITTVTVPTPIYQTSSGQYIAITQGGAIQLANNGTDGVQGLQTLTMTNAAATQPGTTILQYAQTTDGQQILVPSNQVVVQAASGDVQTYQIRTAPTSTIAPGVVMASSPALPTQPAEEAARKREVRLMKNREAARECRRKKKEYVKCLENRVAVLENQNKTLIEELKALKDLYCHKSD
Method: protein-binding microarray
Form: double-stranded DNA, one strand shown
Matrix: in vitro
Concentration: not given
Notes: k-mer, scored over probes, only values ≥0.25
Reading: higher = stronger binding
Quantity: E-score
Strand = ATAAATG; value = 0.263
Strand = ATACGTG; value = 0.27
Strand = CACGTCA; value = 0.489
Strand = ACGTATA; value = 0.387
Strand = ACACGTA; value = 0.409
Strand = ATTATTA; value = 0.256
Strand = TATGACA; value = 0.304
Strand = AAAAAGC; value = 0.271
Strand = GCGTCAC; value = 0.482
Strand = CACAATA; value = 0.257
Strand = AATATAT; value = 0.308
Strand = ATGACGC; value = 0.484
Strand = CTCTGAC; value = 0.287
Strand = ACCTGTA; value = 0.252
Strand = ACGTCAG; value = 0.474
Strand = ATACACA; value = 0.273
Strand = TACACAA; value = 0.268
Strand = CTGTTAC; value = 0.26
Strand = CGTGTGA; value = 0.267
Strand = CTGACGC; value = 0.311

Block 3
Target: RNA binding protein fox-1 homolog 2, RRM domain, GST-SBP tag (RBFOX2, Homo sapiens, UniProt O43251-10, residues 100-194)
Method: RNA Bind-n-Seq
Form: RNA
Matrix: in vitro
Concentration: 365 nM
Notes: natural RNA segment, single round, ends assumed
Baseline: no-protein control
Reading: higher = stronger binding
Quantity: RBNS enrichment (R)
Residues (chain): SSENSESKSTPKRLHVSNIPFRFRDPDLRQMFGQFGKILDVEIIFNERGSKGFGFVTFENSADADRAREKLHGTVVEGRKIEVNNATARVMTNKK
Strand = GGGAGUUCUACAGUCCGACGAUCAAUAAUUUUUAAAUCAUACCAAAAAUAGUAAGAAAAUAUGCAAACACUCUGUGAUCAAACUUAAAAGUCAUUGCCAUUCAUCAUUAAUAAAAGUUGCCAUUUCAACUACGUGGAAUUCUCGGGUGCCAA; value = 0.503
Strand = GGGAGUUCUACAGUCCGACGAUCGUACAAAACACAACCGAGGAGCGUAUACAGUUGAAAACAUUUUUGUUUUGAUUGGAAGGCAGAUUAUUUUAUAUUAGUAUUAAAAAUCAAACCCUAUGUUUCUUUCAGAUUGGAAUUCUCGGGUGCCAA; value = 0.639
Strand = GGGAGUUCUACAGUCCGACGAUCGGAUUUACUAUAGGUGAAGAUAGCCCUCAUAUUCAAGGACAGAAGCUCUGGCAGGAGUAAAUUAGCAAAGCAGAAAUAGUACCCUUUCAUUCUUGGAGGUGCUUUGAAAUUGGAAUUCUCGGGUGCCAA; value = 0.902
Strand = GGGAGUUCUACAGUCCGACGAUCUCUUCAUCACCACUGUAGAUUUUGCUGCAUGUGCAGGUCCUCUAUUUUUAAUUGCUGUUUUCGUUGCUGCAGUACUUUACAAACUUCUAGUUCGUUGAGACUUAGUGACCUGGAAUUCUCGGGUGCCAA; value = 7.33
Strand = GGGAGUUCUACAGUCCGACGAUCCUAUACUGGUCACUUACCACCUGGGGCCUCAGUUUCCUGAUCUGCGAAAGGGGCAAGGGCUAAGGCAGAUGAUAAUCUGAAGCUAGAUUAAACAGUCUAGGUGCUCCUAAUGGAAUUCUCGGGUGCCAA; value = 0.428
Strand = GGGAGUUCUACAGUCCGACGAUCCCUCAAACCAGCUAGUCCUGGACAAGAUGUCUCUUCAGUAUCUCUGCUAUUGGGUUCAGAUGUGUCUAGGGGAACAAAGAAAAAUUCAUUAACAAACAUUAGCUGCUCCAUGGAAUUCUCGGGUGCCAA; value = 0.441
Strand = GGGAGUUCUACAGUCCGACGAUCACAGACUUAACUUGAUGAUGGAAAUGAUGAAAAACAGGCCUAAUGUAGGUGUAAAAGUGUAUUCAAACUCUAGACACGGCUAAUCAGAUUUUAAUUCAAUCAUACACACAUGGAAUUCUCGGGUGCCAA; value = 0.465
Strand = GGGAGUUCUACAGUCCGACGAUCGAAGCAGGCUCUGCUUCUCUGUUGUUCCUGGUGGCUGGGCCUUAGCAGGGGUCUUUGCUCUUGAAGCCCAGGAUUGGGCAUGACCUGGUAGGAGCCUCUGUUCUUACCUAUGGAAUUCUCGGGUGCCAA; value = 0.967
Strand = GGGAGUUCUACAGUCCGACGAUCUAAGUAUGAGCCUACUGUUUUGUUUCCUAGUCCCAUGGACAAGUAGCAUACCAGGGGGCAAGAAGCUGAGCUGCUGGGGAGAGUCAGGGGAACUAAGAGCUUAGAAGGAGUGGAAUUCUCGGGUGCCAA; value = 1.42
Strand = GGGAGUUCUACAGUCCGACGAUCUAGGGUGACAGCAACCAAGGAUUAAGUAGUCAGUACACCAAGUUCUGGUCUGCUCAUGCUUCAUUGUCCAGAAAGCAGCAGGAAAUUGUAGUUCCGUUGUCAUCAAGCAGUGGAAUUCUCGGGUGCCAA; value = 0.287
Strand = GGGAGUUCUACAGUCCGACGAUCUGGGAUACCUCCAGGUUCCAGUAAAAUUCUUCUGACCGAAACCAAUGUGGGUGUUAGAAAAAUUACCAUAUAGCUUAAUAUGUUUAUUAGUUCUCUUUGGAAAAAAACUAUGGAAUUCUCGGGUGCCAA; value = 0.298
Strand = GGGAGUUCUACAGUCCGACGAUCUCAGGAGUAAUACAAAUCAGGUAUUUCAUCAUCAUUUGGUAAUAUGAAAACUCCAGUGAACUCCCAAGGACAUUUACAACAUUUAUAUUCACACGCUGUAUGGAAGGGUGUGGAAUUCUCGGGUGCCAA; value = 0.843

Block 4
Target: Fragile X messenger ribonucleoprotein 1, C-terminal low-complexity region (Fmr1, Mus musculus, UniProt P35922)
Method: RNA Bind-n-Seq
Form: RNA
Matrix: in vitro
Concentration: 200 nM
Notes: whole 134-nt RNA, ends assumed
With: 150 mM LiCl
Baseline: input library
Reading: higher = stronger binding
Quantity: log2 enrichment
Each molecule: 7-deaza-guanosine replaces G
Strand = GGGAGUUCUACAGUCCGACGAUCUAACUUUAGAGGAGGAUCUGAUGGAUAUGGCAAUGGACGUGGAUUUGGGGAUGGCUAUAAUGGGUAUGGAGGAGGACCUGGAGGUGGCAAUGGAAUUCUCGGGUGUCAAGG; value = 0.381
Strand = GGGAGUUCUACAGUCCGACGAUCAAGUCCUGUGCUACACAUCGUAUGUACCGAAUCGGUUUUUUUGGAGGUUUUUUUGGAAAGUAUUAUGUUACGCCGUUCGGAUCUGCACUUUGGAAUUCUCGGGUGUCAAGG; value = -2.04
Strand = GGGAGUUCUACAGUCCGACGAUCUGGGAGGUGGAUUUUAUUUAUUUUUUUAGCUCAUUUCCAGGGGUGGGAAUUUUUUUUUAAUAUGUGUCAUGAAUAAAGUUGUUUUUGAAAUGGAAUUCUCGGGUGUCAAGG; value = -0.0662
Strand = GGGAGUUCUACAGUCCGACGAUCCCUCAAGUCCUGUGCUACACAUCGUAUGUACCGAAUCGGGGCGGGCGGCGGGGAAAGUAUUAUGUUACGCCGUUCGGAUCUGCACUUCCAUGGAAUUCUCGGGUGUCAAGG; value = -0.0481
Strand = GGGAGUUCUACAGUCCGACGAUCCUCAAGUCCUGUGCUACACAUCGUAUGUACCGAAUCGGGGUUGGGUUGGGUUGGAAAGUAUUAUGUUACGCCGUUCGGAUCUGCACUUCCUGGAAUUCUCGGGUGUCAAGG; value = -0.454
Strand = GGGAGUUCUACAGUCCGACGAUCUUCCUCAAGUCCUGUGCUACACAUCGUAUGUACCGAAUCGGUGGAGGAGGAAAGUAUUAUGUUACGCCGUUCGGAUCUGCACUUCCAGCAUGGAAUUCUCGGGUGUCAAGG; value = -2.27
Strand = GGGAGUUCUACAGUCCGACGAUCUCCUGUGCUACACAUCGUAUGUACCGAAUCAAAUUUAAACCCCCCCAAACCCCCCCAAAAAAGUAUUAUGUUACGCCGUUCGGAUCUGCAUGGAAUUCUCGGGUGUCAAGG; value = 1.42
Strand = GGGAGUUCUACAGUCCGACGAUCCCUGUGCUACACAUCGUAUGUACCGAAUCAAACCCCCAAACCCCCCCAAACCCCCCCAAAAAAGUAUUAUGUUACGCCGUUCGGAUCUGCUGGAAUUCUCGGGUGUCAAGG; value = 0.887
Strand = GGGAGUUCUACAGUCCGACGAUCAAGUCCUGUGCUACACAUCGUAUGUACCGAAUCGGGAAAGGGUUUUUUUGGGAGGGAAAGUAUUAUGUUACGCCGUUCGGAUCUGCACUUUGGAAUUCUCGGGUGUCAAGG; value = -1.4
Strand = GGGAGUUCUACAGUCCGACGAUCCUCAAGUCCUGUGCUACACAUCGUAUGUACCGAAUCGGAAGGGAAGGGGAAGGGAAAGUAUUAUGUUACGCCGUUCGGAUCUGCACUUCCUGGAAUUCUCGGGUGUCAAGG; value = -0.0581
Strand = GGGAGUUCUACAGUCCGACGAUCAGUCCUGUGCUACACAUCGUAUGUACCGAAUCGGGUUUUGGGGUUUUGGGGUUUUGGAAAGUAUUAUGUUACGCCGUUCGGAUCUGCACUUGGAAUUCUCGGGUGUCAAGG; value = -1.45

A few entries again (block 1):
Modification = 2'F-ANA at 1 3 4 10 11 12; value = 137 a.u.
Modification = 2'F-ANA at 1 2 3 4 7 13 15; value = 119 a.u.
Modification = 2'F-ANA at 2 6 10; value = 123 a.u.
Modification = 2'F-ANA at 3 5 6 9 10 12 13 14 15; value = 72.4 a.u.
Modification = 2'F-ANA at 2 3 5 6 7 11 13 14; value = 46.8 a.u.
Modification = 2'F-ANA at 2 3 5 7 8 13 14 15; value = 56.5 a.u.
Modification = 2'F-ANA at 3 4 10 14 15; value = 207 a.u.
Modification = 2'F-ANA at 1 4 6 7 8 9 12 13 14 15; value = 56 a.u.
